Results from different studies.
Numbers after ± are the reported error.

Structure (SMILES) | organism | test | test system | setting | EC50 [µM]
Cc1c(C(=O)Nc2ccc3c(c2)B(O)OC3)nnn1-c1ccccn1 | Leishmania panamensis | parasite growth | mouse Peritoneal macrophage | 72 h, intracellular, amastigote | 18.3
COc1cc(NC(C)CCCNC(=O)c2cc(Br)ccc2N)c2ncccc2c1 (stereo not shown) | HIV-2 | cytopathic effect | MT4, ROD | 5 days | > 100
CC1(C)C=C2[C@H]3CC[C@@H]4[C@@]5(C)CC[C@H](OC(=O)C(C)(C)C)C(C)(C)[C@@H]5CC[C@@]4(C)[C@]3(C)CC[C@@]2(C(=O)O)CC1 | HIV-1 IIIB | viral replication, refers to: p24 antigen | MT-2 | day 4 | > 10
COc1ccc(NC(=O)N2CCCCN3[C@H](CN(C)C)[C@H](c4ccc(C#Cc5ccccc5)cc4)[C@@H]3C2)cc1 | Plasmodium cynomolgi | liver-stage large forms (schizonts) | primary rhesus hepatocytes, M strain |  | 1.04
O=[N+]([O-])c1cn2c(n1)O[C@@H](COc1ccc(-c3ccc(F)cc3)nc1)CC2 | Leishmania amazonensis | parasite growth | mouse Peritoneal macrophage | 72 h, intracellular, amastigote | < 1.11
COc1cc(NC(C)CCCNC(=O)c2ccccc2N)c2ncccc2c1 (stereo not shown) | HIV-2 | cytopathic effect | MT4, ROD | 5 days | > 100
CCCCC(=O)O[C@H]1CC[C@]2(C)[C@H]3CC[C@@H]4C5=CC(C)(C)CC[C@]5(C(=O)O)CC[C@@]4(C)[C@]3(C)CC[C@H]2C1(C)C | HIV-1 IIIB | viral replication, refers to: p24 antigen | MT-2 | day 4 | > 10
CCc1cn([C@@H]2O[C@H](CO)[C@@H](O)[C@H]2O)c2ncnc(CC)c12 | Leishmania infantum | parasite growth, imaging | mouse Macrophage | 5 days, intracellular, amastigote | > 64
CN(C)CCNC(=O)c1cc(-c2ccccc2)nc2ccccc12 | Enterovirus D68 | cytopathic effect | RD, US/KY/14-18953 | bound over five strains | < 1
CC1(C)C=C2[C@H]3CC[C@@H]4[C@@]5(C)CC[C@H](OC(=O)C6CCCC6)C(C)(C)[C@@H]5CC[C@@]4(C)[C@]3(C)CC[C@@]2(C(=O)O)CC1 | HIV-1 IIIB | viral replication, refers to: p24 antigen | MT-2 | day 4 | > 10
CCCC#Cc1cn([C@@H]2O[C@H](CO)[C@@H](O)[C@H]2O)c2ncnc(C)c12 | Leishmania infantum | parasite growth, imaging | mouse Macrophage | 5 days, intracellular, amastigote | > 64
N=C(N)N | Enterovirus D68 | cytopathic effect, neutral red uptake | A549, US/KY/14-18953 |  | 32 ± 4.8
Cc1ncnc2c1c(C1CCCCC1)cn2[C@@H]1O[C@H](CO)[C@@H](O)[C@H]1O | Leishmania infantum | parasite growth, imaging | mouse Macrophage | 5 days, intracellular, amastigote | > 64
CCC(=O)O[C@H]1CC[C@]2(C)[C@H]3CC[C@@H]4C5=CC(C)(C)CC[C@]5(C(=O)O)CC[C@@]4(C)[C@]3(C)CC[C@H]2C1(C)C | HIV-1 IIIB | viral replication, refers to: p24 antigen | MT-2 | day 4 | > 10
CCN(CC)CCCC(C)Nc1ccnc2cc(Cl)ccc12 (stereo not shown) | HIV-2 | cytopathic effect | MT4, ROD | 5 days | 3.8 ± 1.6
CCc1cn([C@@H]2O[C@H](CO)[C@@H](O)[C@H]2O)c2nc[nH]c(=O)c12 | Leishmania infantum | parasite growth, imaging | mouse Macrophage | 5 days, intracellular, amastigote | > 64
O=C(NCCN1CCCC1)c1cc(-c2cccs2)nc2ccccc12 | Enterovirus D68 | viral replication, CPE | RD, US/KY/14-18953 | 3 days | ≤ 0.1
Cc1ncnc2c1c(-c1ccccc1)cn2[C@@H]1O[C@H](CO)[C@@H](O)[C@H]1O | Leishmania infantum | parasite growth, imaging | mouse Macrophage | 5 days, intracellular, amastigote | > 64
CC(=O)OC[C@H]1O[C@@H]([S-])[C@H](OC(C)=O)[C@@H](OC(C)=O)[C@@H]1OC(C)=O.CCP(CC)CC.[Au+] | Leishmania amazonensis | alamarBlue | axenic amastigotes | 72 h | 0.13 ± 0.0025
COc1ccc(NC(=O)N2CCCCN3[C@H](CO)[C@H](c4ccc(C#Cc5ccccc5)cc4)[C@@H]3C2)cc1 | Plasmodium cynomolgi | liver-stage large forms (schizonts) | primary rhesus hepatocytes, M strain |  | 2.86
Cc1ncnc2c1c(Br)cn2[C@@H]1O[C@H](CO)[C@@H](O)[C@H]1O | Leishmania infantum | parasite growth, imaging | mouse Macrophage | 5 days, intracellular, amastigote | 24.1
CCCn1/c(=N/C(=O)c2cccc(C(N)=O)c2)[nH]c2ccccc21 | Plasmodium berghei | liver stage parasite load, inhibitor, luciferase | HepG2 | compound added 0 h post infection | 11

Excerpt of the above:
Structure (SMILES) | organism | test | test system | setting | EC50 [µM]
COc1ccc(NC(=O)N2CCCCN3[C@H](CO)[C@H](c4ccc(C#Cc5ccccc5)cc4)[C@@H]3C2)cc1 | Plasmodium cynomolgi | liver-stage large forms (schizonts) | primary rhesus hepatocytes, M strain |  | 2.86
Cc1ncnc2c1c(Br)cn2[C@@H]1O[C@H](CO)[C@@H](O)[C@H]1O | Leishmania infantum | parasite growth, imaging | mouse Macrophage | 5 days, intracellular, amastigote | 24.1
CCCn1/c(=N/C(=O)c2cccc(C(N)=O)c2)[nH]c2ccccc21 | Plasmodium berghei | liver stage parasite load, inhibitor, luciferase | HepG2 | compound added 0 h post infection | 11
